Experimental data collected from several papers.
Each numbered part is a random draw from the data of one study; scales do not carry over between parts. Substitutions count along the parent as printed.

Set 1 — method: universal PBM; molecule type: double-stranded DNA, one strand shown; medium: in vitro; tested at: 600 nM; direction: higher = stronger binding; endpoint: E-score
Target: Sal-like protein 4, full length isoform A (SALL4, Homo sapiens, UniProt Q9UJQ4, residues 1-1053)
Sequence of UniProt Q9UJQ4 (whole entry, looked up): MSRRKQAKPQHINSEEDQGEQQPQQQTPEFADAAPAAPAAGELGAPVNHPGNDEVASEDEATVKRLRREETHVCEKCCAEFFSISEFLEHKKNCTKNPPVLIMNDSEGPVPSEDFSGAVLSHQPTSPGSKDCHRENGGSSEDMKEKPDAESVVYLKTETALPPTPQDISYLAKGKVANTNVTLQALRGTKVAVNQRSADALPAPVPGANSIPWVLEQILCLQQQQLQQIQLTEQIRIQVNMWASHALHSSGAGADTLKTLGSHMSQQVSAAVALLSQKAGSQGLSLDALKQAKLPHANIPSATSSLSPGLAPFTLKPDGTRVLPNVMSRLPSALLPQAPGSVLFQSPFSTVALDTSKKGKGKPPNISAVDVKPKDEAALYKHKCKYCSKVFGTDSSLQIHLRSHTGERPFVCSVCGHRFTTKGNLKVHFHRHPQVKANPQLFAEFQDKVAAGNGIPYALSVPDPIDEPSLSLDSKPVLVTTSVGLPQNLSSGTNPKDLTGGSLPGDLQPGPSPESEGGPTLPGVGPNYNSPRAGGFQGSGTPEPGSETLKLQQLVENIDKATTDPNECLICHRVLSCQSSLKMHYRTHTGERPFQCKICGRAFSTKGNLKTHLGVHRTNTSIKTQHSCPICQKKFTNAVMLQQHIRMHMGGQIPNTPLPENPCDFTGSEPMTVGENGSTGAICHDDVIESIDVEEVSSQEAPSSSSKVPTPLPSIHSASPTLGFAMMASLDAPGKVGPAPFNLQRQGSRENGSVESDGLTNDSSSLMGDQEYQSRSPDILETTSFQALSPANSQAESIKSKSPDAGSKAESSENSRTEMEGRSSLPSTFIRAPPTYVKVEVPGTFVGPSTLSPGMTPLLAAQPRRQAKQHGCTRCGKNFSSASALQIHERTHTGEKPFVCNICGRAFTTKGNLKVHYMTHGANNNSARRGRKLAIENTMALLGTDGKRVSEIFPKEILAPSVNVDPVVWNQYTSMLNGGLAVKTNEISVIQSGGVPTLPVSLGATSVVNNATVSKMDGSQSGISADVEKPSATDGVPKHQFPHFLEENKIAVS
Notes: 8-mer, flanks averaged, mean of replicates
ACTGATCA: 0.0709
GGACTGCC: -0.311
AAGAGTTC: -0.155
AAAGAGTA: 0.202
CCCGGACC: -0.352
AAATAAAG: 0.168
GATTGAAA: 0.217
GCCTTCAA: -0.00247
GGACGTCC: -0.155
GTAATAGA: 0.22
ACTCCCAG: -0.106
AGGCTTGA: -0.0651
ACCCATCT: 0.0335
ACGATCGT: -0.103
CGACCTGA: -0.173
GTACGGAC: -0.133
AGCTATGA: 0.181
ACTACACA: 0.204
CATAATAG: 0.348
CCAGAACA: 0.00993

Set 2 — method: RNA Bind-n-Seq; molecule type: RNA; medium: in vitro; tested at: 365 nM; reference: no-protein control; direction: higher = stronger binding; endpoint: RBNS enrichment (R)
Target: RNA binding protein fox-1 homolog 2, RRM domain, GST-SBP tag (RBFOX2, Homo sapiens, UniProt O43251-10, residues 100-194)
Notes: natural RNA segment, single round, ends assumed
Constant ends, left off below: GGGAGUUCUACAGUCCGACGAUC … UGGAAUUCUCGGGUGCCAA
Target sequence (chain): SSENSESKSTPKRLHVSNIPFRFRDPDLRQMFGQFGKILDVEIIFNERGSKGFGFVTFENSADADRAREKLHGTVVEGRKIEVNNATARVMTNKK
GGGUCCCCAUGGGGUGGCUCAGAGAUAGGACCCUGGUUUUAAAUCCCUCCCAGCCUGGUGCUGGUGAUGGGCCCUGGCCCUACUCCAGGGCCAAUGCACCCCCGCCUCAC: 0.191
UCUAAGAUGUCCCAGGUCCUGGGAAGUUUACUCAAUAAAGCUGGCUUUCCCCUGCCCUCCAUGCUGGUCCUGUGCAGCCCCCAGCCUGCACCACUCAGCAGUGGGGGGCU: 0.348
AUGACAGAGUUAGCCUGUGGCUAUAGGAGAUCAUGUCAUCCAGACCUUUUUGCCCAUCACAUUAACUUUCCUGGAAUAUUGUGCUGCACAGGUAGACCUGAAUCUGCCCA: 0.618
GUAUAAAAGACAAGGUGCCCAAGGUCACAAGAACACCUCAUUGCCGACUGAAGCCAGUGUCAGGGCACCACAUACUCCUGGGGCCAGUCUACAGGAAAGAGAUGUUCUGC: 0.657
CAGGGUUGGAUCCAUAAGGCUUUAAUCUGGCCCUGAAAGCAGUGUUGCCGCUUCAGACAGUACUGCGAGCAAUGGCUGCCUUGUCGGAGUGAGUGUGUAGCUGGACACCU: 0.314
CCUUGACUGCUCCUUUGGGCUGGGCCAAGGUUUGUAUGUACCACACCAUGCAUGACUCAGAUGCCCUCAGGUCCCUUUCUCUAUGGUAUGUAUACUGCUUGUGUUUGGGU: 1.93
GCCAGAUCCCUUGCACACAGCCCAGGGCGCACACCAUAUCACACGUGGCCUUGUCUAGACCCAGUCCUGAGCAGAGGAGCCUGGUGCCCUCCCAGUCCACAGGGUCUUCC: 0.426
UUUUCUGUAUUUUUCCCCCUCUCUUUAAAACAUCACUGAAAUUUCAAUAAAUUUUUAUUGAAAUGUCUUGGGCCUUGUGUUAAAUGUUUUUUCUUUGGGAACCUUUCCUG: 0.596
UCAGGAUACCUGCUGUCCACCCAACAGACUGCAAACAUCAACUGUGUUUGGUGCUGACACUCUGAACCCAAAACCAGGGAUCUCUGACAGGCUUGCCUGGCCCCAGGGAC: 0.276
GACACUGGGCCUUAUAUGCUCUUUUAAAACUUCAAGGUCCACCCCCAGUAAUGCACUUCCUUCAAAAGACCCCACCUCCUAAUCCUUGUAAUCUUCCUCAAACCAGUUCU: 1.04
UAGUCACCUGUCACCAGGGAUUCUACUACAGUCUGCGCGCCACAGAUAGUUGCUCACACACCAUUGAGCAAACGUGUCUUGUUCCUUGUAUCUCUUUUCUUCCAGCCCUG: 0.317
GUAGCUCCUACCAGCCUCCAAUUCUCUAUGUAGCUGAAGAUGACCUUGACUACCUGAGUUUCCUGUCUCUACUUCUUUUCAGCUUCUGGGACCACAGGCCUGUACCACCA: 0.342

Set 3 — method: protein binding microarray; molecule type: double-stranded DNA, one strand shown; medium: in vitro; tested at: not given; reference: not given; direction: higher = stronger binding; endpoint: E-score
Target: Histone acetyltransferase KAT6A, both winged helices, GST fusion (KAT6A, Homo sapiens, UniProt Q92794, residues 1-181)
Notes: 8-mer, flanks averaged, mean of 2 arrays, mostly near background
Construct (chain): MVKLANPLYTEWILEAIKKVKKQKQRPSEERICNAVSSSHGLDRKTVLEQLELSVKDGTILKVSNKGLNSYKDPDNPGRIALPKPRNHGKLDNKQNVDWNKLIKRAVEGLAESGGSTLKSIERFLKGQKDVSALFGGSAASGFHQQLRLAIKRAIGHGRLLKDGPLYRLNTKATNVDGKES
CCTAGGAA: -0.139
AATATGCT: -0.00526
CACGATAC: -0.0218
GAGAGAGC: -0.0248
AGACCGCC: 0.162
AATGAAAC: -0.156
TCGGCACA: 0.0966
AGATTCAA: -0.146
GTTACCCA: -0.14
AAGCGAGT: 0.0557
CAGATCTA: -0.102
CCACGGGC: 0.251
AGAATCAT: -0.267
CACTATTC: 0.011
ACGCGCTA: 0.355
TCCGGAAA: 0.189
AGCGTACG: 0.239
AGATGTGC: -0.0604
ATATGCAG: -0.141
AGGCTGTA: -0.149

Set 4 — method: EMSA with sequencing; molecule type: double-stranded DNA, one strand shown; medium: in vitro; tested at: 10 and 20 nM; reference: negative control set to 0; direction: higher = stronger binding; endpoint: normalised bound fraction
Target: Hepatocyte nuclear factor 3-alpha (Foxa1, Mus musculus, UniProt P35582, residues 1-468, full length assumed)
Notes: whole designed probe, mean of two concentrations, ends assumed
Constant ends, left off below: GTGAGCGGTGCCCATTGATGGGGAAC … TTTCACTGGGATCGTGGGGAC
Residues (chain): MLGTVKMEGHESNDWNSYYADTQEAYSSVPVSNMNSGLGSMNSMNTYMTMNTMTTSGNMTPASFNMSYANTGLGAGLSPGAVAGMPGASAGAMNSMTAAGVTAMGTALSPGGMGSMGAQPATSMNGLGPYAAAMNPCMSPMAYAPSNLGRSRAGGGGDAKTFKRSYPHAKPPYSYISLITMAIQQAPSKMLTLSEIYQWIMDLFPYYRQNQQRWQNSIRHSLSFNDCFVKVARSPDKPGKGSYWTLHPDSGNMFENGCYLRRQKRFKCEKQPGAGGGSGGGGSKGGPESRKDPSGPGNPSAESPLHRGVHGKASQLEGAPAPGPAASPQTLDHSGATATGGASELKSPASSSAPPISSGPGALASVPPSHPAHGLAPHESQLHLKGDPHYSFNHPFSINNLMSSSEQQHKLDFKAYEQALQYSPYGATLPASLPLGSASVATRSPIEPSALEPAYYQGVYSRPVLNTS
GTGCTTTAAAAACATTTTAAAAGGAAAGAAAAACTAAAATCACCAATTTTGTCACCATTCAAATGTCATTGTGTTAATAATTTGATCTGTTTCTTGTTTACTTTTTCCTCTATTGAGGGTTTGTTGTTGTTGTTGTTGTTGTTGTTGTTGTTTGTTTTTGCCATAGTTGTAGTCAGTCATTCTGTATACATAA: 0.47 ratio
AGCAAGGCTTTAAAAGTGAGGTCTTTCAGTTTAGATGCAAAAAGGGTGGTTCTGTTGAGTCAAGTTTCGTAATCCCAGCTATTTCACTACATAGTAAACACCTAGAATGAGGTAGCTGGAGTGCAAATCTAAATGGCTTGTGACAGTTAAGGAAGTACATAGGCAACAGTTACTGGTTTTCTTGATGCAGCTG: -0.00592 ratio
CAGACTTCAAGTTAACACTTATTTTCCTGGTTTCTAAAGACCTTTCATTTTCTTTAGGAATTATTTCAGGGATCTTCTTGAGTAAATCTTTATGTTTACTTAGCAGCAACTCTAGATTTGAAAGCTAGAATTGTTTCCTTAGTTTTTCTTCCAAGGATTCTTCTTGGTATGAATATTGCAGAGCGTCTTTAGT: 0.497 ratio
GCTGTCAGCCTCTTCTCCGTGGTGTTTTCTTGGAGCAAGTCCAAAGCAAAATCCTGATGCAAACAGTAACTATGGTTGTACATTGTTAAGTTGTATTTACTTTTTTGAATAGATAACGTTTACACGATCAAGATTCAGAATGTACCAAAAGTCCCCCAGTTGTCAGTTTTCCTCTCTGGAAATATACAGGAGG: 0.291 ratio
CCAGTGAATATATATATATATTTTCAAATTTGATTTTCCAAATGTCCCGGGAGCACATGCCCTGTTTCCTAATGAATCTCCGGGGTTCTTCAGAGTAAACAACAAAACATAGCATTCCTGCTTTGGGACTCCAGCCCTCCACCCTGGGGAGCACGTGTCTCCTTGACCATGGTCATCTCCTACTAGACCGGAG: 0.286 ratio
CAAACTTTGCTGTAGTTTAACCCTGTAAATCATTGGAAAGTTTATCAAATACCTTAAATGCTTTTGCAACTTATTCATTCCCTGGTTATTTGGGTAAACAAGTACAGCGAACAGTTGGATGAACTTTATCTGAACTATTATCACTGAGCTGTTGGGGGAAATTCCGTCTTTTCCAAATCTGTACTGCGATATA: 0.174 ratio
CACAATATATTTGGTAGCAGTACTAGAGGCTTCCCCTACCAGTTCTGGCACCATCCAGTTGAGATTTCTCCTGGCTCGGCTATCTGCCCAGCTCTGTTGACTTTGCACTGACTCAGTTTGGTTACTCTAAATGTACACACCCAATTCAAAAAAGTTTGAGACACCTTACAATAAGGTCATAGAACTTGTAATT: 0.269 ratio
GCTCGAGGCTGGGCGGACAGCTCCCTTTCTCCCGGAGTTGACGTCTGATGTGGGTTATAAATCCCGCTGTGTAAACGTCTGTCCACTCACTGGGCAATCTTTCCTACACCCGCCCTCCCCGGGGAGCTCCAGGGTGCAGGGCGTGGACCTGCCCAGCCCTTCAGGGCCAGAAGGCACGGTGGAGCCGGTCTGC: 0.0275 ratio

Set 5 — target: JUNB, bZIP domain (human); method: DHFR protein complementation; medium: yeast; reference: wild-type JUN-FOS pair; direction: higher = stronger binding; endpoint: binding fitness
Notes: single substitutions, most at no-binding floor
Parent: JUN, bZIP domain (human); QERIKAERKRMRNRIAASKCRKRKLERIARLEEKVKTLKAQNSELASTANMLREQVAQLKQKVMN; partner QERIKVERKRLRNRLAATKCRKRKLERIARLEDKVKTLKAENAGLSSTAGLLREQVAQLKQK
Q55D: -1.35 natural log
S47M: -0.893 natural log
E33W: -1.32 natural log
E33T: -1.34 natural log
I28L: -1.29 natural log
V35W: -1.38 natural log
R53S: -1.32 natural log
K34H: -1.2 natural log
S43N: -1.12 natural log
M51L: -1.04 natural log
V35S: -1.48 natural log
T37Q: -0.757 natural log
A49G: -1.38 natural log
L45M: -1.31 natural log
A40M: -1.16 natural log
E33S: -1.24 natural log
K34C: -1.2 natural log
A46W: -1.28 natural log

Excerpt of the above (set 1):
GGACGTCC: -0.155
GTAATAGA: 0.22
ACTCCCAG: -0.106
AGGCTTGA: -0.0651
ACCCATCT: 0.0335
ACGATCGT: -0.103
CGACCTGA: -0.173
GTACGGAC: -0.133
